# Measured values collected from several papers.
# Lines come from different studies, so protocols differ. ± marks the error that the study gave.
# Sequence of UniProt P20309 (whole entry, looked up): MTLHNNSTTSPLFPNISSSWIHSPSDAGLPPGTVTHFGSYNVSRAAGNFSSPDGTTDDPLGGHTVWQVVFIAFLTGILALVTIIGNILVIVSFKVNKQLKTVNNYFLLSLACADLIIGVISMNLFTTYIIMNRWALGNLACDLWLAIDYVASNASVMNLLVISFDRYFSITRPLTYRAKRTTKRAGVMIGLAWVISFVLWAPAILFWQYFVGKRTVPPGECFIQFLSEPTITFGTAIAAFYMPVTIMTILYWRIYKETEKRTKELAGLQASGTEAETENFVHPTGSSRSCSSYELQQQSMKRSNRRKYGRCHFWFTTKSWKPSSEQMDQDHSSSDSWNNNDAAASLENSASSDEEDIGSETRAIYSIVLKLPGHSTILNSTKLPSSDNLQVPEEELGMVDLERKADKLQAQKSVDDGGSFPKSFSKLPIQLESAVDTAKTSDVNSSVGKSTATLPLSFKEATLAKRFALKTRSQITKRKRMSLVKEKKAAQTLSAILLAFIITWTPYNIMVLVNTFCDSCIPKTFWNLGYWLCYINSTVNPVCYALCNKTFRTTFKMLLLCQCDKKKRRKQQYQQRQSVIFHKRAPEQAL
# Sequence of UniProt P68402 (whole entry, looked up): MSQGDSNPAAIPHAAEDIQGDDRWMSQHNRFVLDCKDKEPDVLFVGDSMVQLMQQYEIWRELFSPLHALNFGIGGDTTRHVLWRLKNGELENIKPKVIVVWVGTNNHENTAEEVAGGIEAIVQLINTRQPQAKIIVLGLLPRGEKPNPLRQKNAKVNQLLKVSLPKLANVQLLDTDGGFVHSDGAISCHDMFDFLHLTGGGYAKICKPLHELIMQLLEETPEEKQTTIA
Compound,tested on,assay,test system,conditions,scale,quantity,result
C[C@@H](O)[C@@H](CO)NC(=O)[C@@H](CCCNC(=N)N)NC(=O)[C@@H]1CCCN1C(=O)[C@@H]1CSSC[C@H](NC(=O)[C@H](Cc2ccccc2)NC(=O)CN2CCN(CC(=O)O)CCN(CC(=O)O)CCN(CC(=O)O)CC2)C(=O)N[C@@H](Cc2ccc(O)cc2)C(=O)N[C@@H](Cc2ccccc2)C(=O)N[C@@H](CCC(N)=O)C(=O)N[C@@H](CC(N)=O)C(=O)N1 [gallium-68 labelled],,,"healthy Wistar rat, spleen","intravenous, 8 MBq, 120 min, individual animals",,tissue uptake,0.09 %ID/g
CO[C@H]1C[C@@H]2CC[C@@H](C)[C@@](O)(O2)C(=O)C(=O)N2CCCC[C@H]2C(=O)O[C@H]([C@H](C)C[C@@H]2CC[C@@H](OC(=O)NCCOCCOCCOCCOCCOCCOCCOCCOCCC(=O)N3CCc4cc(Cn5nc(-c6ccc7oc(N)nc7c6)c6c(N)ncnc65)ccc4C3)[C@H](OC)C2)C[C@@H](O)[C@H](C)/C=C(\C)[C@@H](O)[C@@H](OC)C(=O)[C@H](C)C[C@H](C)/C=C/C=C/C=C/1C,,,patients with advanced solid tumours,"intravenous, 1.6 mg/3 mg weekly, grade ≥3",,incidence of Diarrhea TEAE,0%
CC(C)C[C@@H]1NC(=O)[C@H](CC(C)C)NC(=O)[C@H](Cc2c[nH]c3ccccc23)NC(=O)[C@H](CO)NC(=O)[C@H](Cc2c[nH]c3ccccc23)NC(=O)[C@@H]2CCCN2C(=O)[C@H](CC(C)C)NC(=O)[C@H](Cc2c[nH]cn2)NC(=O)[C@@H]2CCCN2C(=O)[C@H](CC(N)=O)NC(=O)[C@H](C)NC(=O)[C@H](Cc2ccc(O)cc2)NC(=O)[C@H](CS)NC(=O)[C@H](CCCCNC(=O)CN2CCN(CC(=O)O)CCN(CC(=O)O)CCN(CC(=O)O)CC2)NC1=O [lutetium-177 labelled],,,"Balb/c mouse, female, 4T1 tumour, kidney","intravenous, 3.7 MBq, 1 h",,tissue uptake,11.2 ± 1.77 %ID
CC[C@H](C)[C@H](NC(=O)[C@H](CO)NC(=O)[C@H](CC(N)=O)NC(=O)[C@H](CC(C)C)NC(=O)[C@H](Cc1ccc(O)cc1)NC(=O)[C@H](CCCCN)NC(=O)[C@H](CCCCN)NC(=O)[C@@H](NC(=O)[C@H](C)NC(=O)[C@H](CCSC)NC(=O)[C@H](CCC(N)=O)NC(=O)[C@H](CCCCN)NC(=O)[C@H](CCCN=C(N)N)NC(=O)[C@H](CC(C)C)NC(=O)[C@H](CCCN=C(N)N)NC(=O)[C@@H](NC(=O)[C@H](Cc1ccc(O)cc1)NC(=O)[C@H](CC(N)=O)NC(=O)[C@H](CC(=O)O)NC(=O)[C@@H](NC(=O)[C@H](Cc1ccccc1)NC(=O)[C@@H](NC(=O)[C@H](C)NC(=O)[C@H](CC(=O)O)NC(=O)[C@H](CO)NC(=O)[C@@H](N)Cc1c[nH]cn1)C(C)C)[C@@H](C)O)[C@@H](C)O)C(C)C)C(=O)N[C@@H](CC(C)C)C(=O)N[C@@H](CC(N)=O)C(N)=O,,tail-cuff,BALB/c mice,"subcutaneous, 2.5 µg/kg",,systolic blood pressure decrease,19.3 mmHg
COc1cc2c(Oc3ccc4[nH]c(C)cc4c3F)ccnc2cc1OCC1(N)CC1,,,paediatric recurrent refractory sarcoma,8 mg/kg,,grade 3 Proteinuria,0%
COc1ccc([C@@H](O)c2cc(-c3ncnc4cc(N5CCOCC5)ccc34)c(F)cc2Cl)nn1,,,"patients, advanced solid tumours","oral, 200 mg twice daily, treatment-emergent, together with: avelumab",,flatulence incidence,10%
CCN(CCO)CCCC(C)Nc1ccnc2cc(Cl)ccc12 (stereo not drawn),,,newly diagnosed glioblastoma patients,"oral, 400 mg/dose, grade 1, together with: radiotherapy plus temozolomide",,AST increased patients,29%
N=C(N)NCCC[C@@H]1NC(=O)[C@H](CCCCNC(=O)c2ccc(CNC34CNCCNCC(N)(CNCCNC3)CNCCNC4)cc2)NC(=O)[C@@H](Cc2ccc(O)cc2)NC(=O)[C@H](CC(=O)O)NC(=O)CNC1=O [copper-64 labelled],,ex vivo biodistribution,"male athymic nude mouse, PC-3 tumour, kidneys","7.4 MBq, 48 h",,tissue uptake,1.7 ± 0.19 %ID/g
CC(=O)c1c(C)c2cnc(Nc3ccc(C4CCN(CCS(C)(=O)=O)CC4)cn3)nc2n(C2CCCC2)c1=O,,,"human patients, plasma","oral, 100 mg twice daily, day 21 multiple doses",,Cmax,317 ng/mL
O=C(c1ccc(Cl)cc1)N1CCN2C(=O)N(OC(=O)N3CCOc4ccccc43)C(=O)C2C1 (stereo not drawn),"Platelet-activating factor acetylhydrolase IB subunit alpha2 (Homo sapiens, UniProt P68402)",MS-based ABPP,SW-620 conditioned medium,"10 µM, 1 h, 37 °C","reference: compound over DMSO, lower = more inhibition",median protein ratio,0.92
COc1ccc(N2C(=O)N(c3c(C)cccc3Cl)Cc3cnc(Nc4ccc(C5CCN(C)CC5)cc4OC)nc32)nc1,"Proto-oncogene tyrosine-protein kinase Src (SRC, Homo sapiens, UniProt P12931)",kinase activity,,0.5 µM,,inhibition,95%
COc1cc(Nc2ncc(F)c(Nc3ccc4c(n3)NC(=O)C(C)(C)O4)n2)cc(OC)c1OC,"Muscarinic acetylcholine receptor M3 (CHRM3, Homo sapiens, UniProt P20309)",,,,,IC50,> 10 µM
CCc1ccc(CC/C=C/c2ccc3c(c2)C(=O)CC3)cc1,,,"Sprague-Dawley rat, male, blood","oral, 450 mg/kg/day, 14 days",,hematocrit,44.6%
C=CC(=O)N1CC[C@H](n2nc(C#Cc3cc(OC)cc(OC)c3)c3c(N)ncnc32)C1,,,patients with advanced solid tumours,"oral, dose not given, Stomatitis, any grade, QD, all patients",,adverse drug reaction incidence,11.6%
CC[C@H](C)[C@@H]1NC(=O)[C@@H]2CSSC[C@H](NC(=O)[C@H](CCCNC(=N)N)NC(=O)[C@@H]3CSSC[C@H](NC1=O)C(=O)N[C@@H]([C@@H](C)O)C(=O)N[C@@H](CCCNC(=N)N)C(=O)NCC(=O)N[C@@H](Cc1ccccc1)C(=O)N3)C(=O)N[C@@H](CC(C)C)C(=O)N[C@H]1CSSC[C@H](NC(=O)[C@H](C(C)C)NC(=O)CNC(=O)[C@H](CCCNC(=N)N)NC(=O)[C@H](CCCNC(=N)N)NC1=O)C(=O)N[C@@H](CCCNC(=N)N)C(=O)N2,,,"Sprague-Dawley rats, female, adrenal gland",20 mg/kg,direction not given,adrenal necrosis score,3 to 5
O[C@H]1CCCN[C@@H]1CCCn1cnc2c(Cl)c(Cl)ccc21,,,"healthy CYP2D6 intermediate metabolizers, plasma","oral, 150 mg single dose",,AUC(0-12),758 ng·h/mL
O=C(c1ccc(F)c(F)c1Nc1ccc(I)cc1F)N1CC(O)([C@@H]2CCCCN2)C1,,,patients aged 2 to 6 years,"oral, dose not given",,treatment-related adverse events,90%
O=C1c2c(O)c(=O)ccn2N([C@@H]2c3ccccc3SCc3c2ccc(F)c3F)[C@@H]2COCCN12,,,BALB/c mouse,"subcutaneous, 2 mg/kg q12h",,Cmax,113 ng/mL
CCCCCOc1ccc(-c2ccc(-c3ccc(C(=O)N[C@H]4C[C@@H](O)[C@@H](OCC[N+](C)(C)C)NC(=O)[C@@H]5[C@@H](O)[C@@H](C)CN5C(=O)[C@H]([C@@H](C)O)NC(=O)[C@H]([C@H](O)[C@@H](O)c5ccc(O)cc5)NC(=O)[C@@H]5C[C@@H](O)CN5C(=O)[C@H]([C@@H](C)O)NC4=O)cc3)cc2)cc1,,,"adult patients not in ICU, plasma","intravenous, 400 mg loading dose, after first dose, arithmetic mean",,Cmin,2360 ng/mL
C[C@]1(CO)Cc2ncn(-c3ccc(C#N)c(Cl)c3)c2C(=O)O1,,,"human, plasma","2 mg single dose, geometric mean",,AUC(0-inf),0.408 µM·h
COc1ncnn2ccc(-c3cnc4nc(C)n(Cc5nnc([C@@H](C)F)o5)c4c3)c12,,,human patients,"oral, dose not given, grade 1 adverse drug reaction",,incidence of Dysgeusia,7.1%
CC[C@H](C)[C@H](NC(=O)[C@H](Cc1ccccc1)NC(=O)[C@H](CCC(=O)O)NC(=O)[C@H](CCCNC(=N)N)NC(=O)[C@H](C)NC(=O)[C@H](C)NC(=O)[C@H](CCC(N)=O)NC(=O)[C@H](CCC(=O)O)NC(=O)[C@H](CCC(=O)O)NC(=O)[C@H](CC(C)C)NC(=O)[C@H](Cc1ccc(O)cc1)NC(=O)[C@H](CO)NC(=O)[C@H](CO)NC(=O)[C@@H](NC(=O)[C@H](CC(=O)O)NC(=O)[C@H](CO)NC(=O)[C@@H](NC(=O)[C@H](Cc1ccccc1)NC(=O)[C@@H](NC(=O)CNC(=O)[C@H](CCC(=O)O)NC(=O)[C@H](C)NC(=O)CCc1c[nH]cn1)[C@@H](C)O)[C@@H](C)O)C(C)C)C(=O)N[C@@H](C)C(=O)N[C@@H](Cc1c[nH]c2ccccc12)C(=O)N[C@@H](CC(C)C)C(=O)N[C@H](C(=O)N[C@@H](CCCNC(=N)N)C(=O)NCC(=O)N[C@@H](CCCNC(=N)N)C(=O)N[C@@H](CCCCNC(=O)COCCOCCNC(=O)COCCOCCNC(=O)CC[C@H](NC(=O)CCCCCCCCCCCCCCCCC(=O)O)C(=O)O)C(=O)NCC(=O)NCC(=O)N[C@@H](CO)C(=O)N[C@@H](CCCCNc1c(NCCCCCN(O)C(=O)CCC(=O)NCCCCCN(O)C(=O)CCC(=O)NCCCCCN(O)C(C)=O)c(=O)c1=O)C(=O)O)C(C)C [zirconium-89 labelled],,,"rat, knee","intravenous, 3 nmol/kg, 4 h",,tissue uptake,0.3 %ID/g
CN1CC[C@@H](c2c(O)cc(O)c3c(=O)cc(-c4ccc(C(F)(F)F)cc4Cl)oc23)[C@@H]1CO,,item: rectal abscess,AML,"oral, 200 mg, grade 3 to 4, intermittent dosing",,patients with adverse event,10%
Cc1cc(C)c(CNC(=O)c2cc(Cl)c3c(c2C)O[C@@](C)([C@H]2CC[C@H](N(C)C)CC2)O3)c(=O)[nH]1,,,"human, relapsed/refractory NHL","concentration not given, treatment-related TEAEs, grade 5",,Hyponatraemia incidence,0%

# Excerpt of the above:
Compound,tested on,assay,test system,conditions,scale,quantity,result
COc1ccc([C@@H](O)c2cc(-c3ncnc4cc(N5CCOCC5)ccc34)c(F)cc2Cl)nn1,,,"patients, advanced solid tumours","oral, 200 mg twice daily, treatment-emergent, together with: avelumab",,flatulence incidence,10%
CCN(CCO)CCCC(C)Nc1ccnc2cc(Cl)ccc12 (stereo not drawn),,,newly diagnosed glioblastoma patients,"oral, 400 mg/dose, grade 1, together with: radiotherapy plus temozolomide",,AST increased patients,29%
N=C(N)NCCC[C@@H]1NC(=O)[C@H](CCCCNC(=O)c2ccc(CNC34CNCCNCC(N)(CNCCNC3)CNCCNC4)cc2)NC(=O)[C@@H](Cc2ccc(O)cc2)NC(=O)[C@H](CC(=O)O)NC(=O)CNC1=O [copper-64 labelled],,ex vivo biodistribution,"male athymic nude mouse, PC-3 tumour, kidneys","7.4 MBq, 48 h",,tissue uptake,1.7 ± 0.19 %ID/g
